Measurements from different studies.
A part holds a random share of what one study measured. Several values in a cell are separate wells, animals, samples, runs or records.
UniProt P15056, sequence (whole entry, unmodified, looked up): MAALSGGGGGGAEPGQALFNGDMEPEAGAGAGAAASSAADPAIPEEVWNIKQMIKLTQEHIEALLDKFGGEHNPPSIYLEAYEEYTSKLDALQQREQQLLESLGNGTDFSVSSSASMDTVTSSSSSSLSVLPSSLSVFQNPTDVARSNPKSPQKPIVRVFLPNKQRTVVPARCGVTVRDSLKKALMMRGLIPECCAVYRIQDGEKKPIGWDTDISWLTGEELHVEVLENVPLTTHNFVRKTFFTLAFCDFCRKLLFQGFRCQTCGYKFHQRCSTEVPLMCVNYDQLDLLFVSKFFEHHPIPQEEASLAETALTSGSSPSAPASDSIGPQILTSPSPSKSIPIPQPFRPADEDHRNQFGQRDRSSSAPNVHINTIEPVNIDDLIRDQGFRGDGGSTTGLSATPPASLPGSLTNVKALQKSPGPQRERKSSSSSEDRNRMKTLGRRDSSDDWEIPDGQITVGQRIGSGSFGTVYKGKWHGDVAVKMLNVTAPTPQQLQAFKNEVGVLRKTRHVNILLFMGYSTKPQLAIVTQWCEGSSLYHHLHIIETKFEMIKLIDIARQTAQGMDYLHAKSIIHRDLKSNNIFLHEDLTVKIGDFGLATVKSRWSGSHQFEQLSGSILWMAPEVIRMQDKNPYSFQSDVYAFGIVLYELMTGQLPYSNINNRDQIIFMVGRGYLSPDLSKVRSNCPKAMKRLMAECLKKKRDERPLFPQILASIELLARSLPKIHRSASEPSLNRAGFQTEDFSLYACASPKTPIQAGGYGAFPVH
UniProt P07949, sequence (whole entry, looked up): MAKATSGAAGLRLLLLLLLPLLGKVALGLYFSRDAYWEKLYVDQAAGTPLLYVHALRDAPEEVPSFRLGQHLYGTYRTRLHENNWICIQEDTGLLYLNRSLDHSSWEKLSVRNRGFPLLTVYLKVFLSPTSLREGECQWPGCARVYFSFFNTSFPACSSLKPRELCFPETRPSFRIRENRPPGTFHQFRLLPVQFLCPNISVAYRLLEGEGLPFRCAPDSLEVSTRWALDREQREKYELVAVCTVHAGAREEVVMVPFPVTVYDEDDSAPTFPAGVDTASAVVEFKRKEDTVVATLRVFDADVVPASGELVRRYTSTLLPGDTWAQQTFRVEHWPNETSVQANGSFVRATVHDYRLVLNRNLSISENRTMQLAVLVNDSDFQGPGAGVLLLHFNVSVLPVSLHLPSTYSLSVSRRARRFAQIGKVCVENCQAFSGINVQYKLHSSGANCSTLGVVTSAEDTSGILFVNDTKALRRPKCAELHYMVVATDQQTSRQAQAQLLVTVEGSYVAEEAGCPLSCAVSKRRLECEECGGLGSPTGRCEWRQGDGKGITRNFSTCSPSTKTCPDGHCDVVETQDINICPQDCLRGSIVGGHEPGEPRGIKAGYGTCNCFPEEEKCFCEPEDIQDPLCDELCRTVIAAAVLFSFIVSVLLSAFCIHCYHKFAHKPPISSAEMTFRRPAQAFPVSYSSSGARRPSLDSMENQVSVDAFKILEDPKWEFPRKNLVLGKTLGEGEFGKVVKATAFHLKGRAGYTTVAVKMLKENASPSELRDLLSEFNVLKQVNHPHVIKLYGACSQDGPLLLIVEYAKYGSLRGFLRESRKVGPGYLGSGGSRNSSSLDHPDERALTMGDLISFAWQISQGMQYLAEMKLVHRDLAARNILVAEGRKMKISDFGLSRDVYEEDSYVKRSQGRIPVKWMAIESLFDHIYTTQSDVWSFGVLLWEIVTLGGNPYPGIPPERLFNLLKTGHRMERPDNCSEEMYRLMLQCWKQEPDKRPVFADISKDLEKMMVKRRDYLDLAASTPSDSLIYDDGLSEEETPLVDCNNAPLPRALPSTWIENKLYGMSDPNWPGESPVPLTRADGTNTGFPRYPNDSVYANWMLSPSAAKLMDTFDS
UniProt Q9H3Y6, sequence (whole entry, looked up): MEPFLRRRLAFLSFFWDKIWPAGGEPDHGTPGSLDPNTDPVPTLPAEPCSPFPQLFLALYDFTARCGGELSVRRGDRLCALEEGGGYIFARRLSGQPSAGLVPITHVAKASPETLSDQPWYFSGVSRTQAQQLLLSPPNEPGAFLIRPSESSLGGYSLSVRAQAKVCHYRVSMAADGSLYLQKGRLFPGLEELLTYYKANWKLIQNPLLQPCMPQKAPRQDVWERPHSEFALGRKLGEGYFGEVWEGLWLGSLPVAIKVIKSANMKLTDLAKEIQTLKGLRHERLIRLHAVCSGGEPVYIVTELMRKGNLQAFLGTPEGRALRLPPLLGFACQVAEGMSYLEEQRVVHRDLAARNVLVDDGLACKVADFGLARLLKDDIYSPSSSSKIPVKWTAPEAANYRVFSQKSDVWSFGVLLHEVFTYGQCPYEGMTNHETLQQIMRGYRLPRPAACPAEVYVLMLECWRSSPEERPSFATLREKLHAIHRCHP
UniProt Q9NYY3, sequence (whole entry, looked up): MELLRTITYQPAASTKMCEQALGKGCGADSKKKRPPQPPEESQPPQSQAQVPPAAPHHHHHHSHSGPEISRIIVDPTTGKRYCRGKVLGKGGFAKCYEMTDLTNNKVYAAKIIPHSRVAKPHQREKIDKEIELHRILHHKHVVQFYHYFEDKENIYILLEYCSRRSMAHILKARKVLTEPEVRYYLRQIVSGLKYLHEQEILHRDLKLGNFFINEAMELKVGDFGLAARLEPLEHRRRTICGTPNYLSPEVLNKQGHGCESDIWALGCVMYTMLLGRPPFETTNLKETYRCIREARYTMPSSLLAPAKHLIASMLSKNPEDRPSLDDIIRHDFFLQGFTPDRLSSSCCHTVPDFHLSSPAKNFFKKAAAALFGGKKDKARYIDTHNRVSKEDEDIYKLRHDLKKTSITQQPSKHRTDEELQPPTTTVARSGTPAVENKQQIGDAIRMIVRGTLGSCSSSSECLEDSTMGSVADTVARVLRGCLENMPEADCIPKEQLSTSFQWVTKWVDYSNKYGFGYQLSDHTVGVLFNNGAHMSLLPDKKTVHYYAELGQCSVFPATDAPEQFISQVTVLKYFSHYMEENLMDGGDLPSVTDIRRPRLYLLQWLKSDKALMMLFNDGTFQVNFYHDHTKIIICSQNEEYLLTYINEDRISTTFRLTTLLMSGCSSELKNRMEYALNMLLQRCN

Series 1
Target: Tyrosine-protein kinase receptor UFO (AXL, Homo sapiens, UniProt P30530)
UniProt P30530, sequence (whole entry, looked up): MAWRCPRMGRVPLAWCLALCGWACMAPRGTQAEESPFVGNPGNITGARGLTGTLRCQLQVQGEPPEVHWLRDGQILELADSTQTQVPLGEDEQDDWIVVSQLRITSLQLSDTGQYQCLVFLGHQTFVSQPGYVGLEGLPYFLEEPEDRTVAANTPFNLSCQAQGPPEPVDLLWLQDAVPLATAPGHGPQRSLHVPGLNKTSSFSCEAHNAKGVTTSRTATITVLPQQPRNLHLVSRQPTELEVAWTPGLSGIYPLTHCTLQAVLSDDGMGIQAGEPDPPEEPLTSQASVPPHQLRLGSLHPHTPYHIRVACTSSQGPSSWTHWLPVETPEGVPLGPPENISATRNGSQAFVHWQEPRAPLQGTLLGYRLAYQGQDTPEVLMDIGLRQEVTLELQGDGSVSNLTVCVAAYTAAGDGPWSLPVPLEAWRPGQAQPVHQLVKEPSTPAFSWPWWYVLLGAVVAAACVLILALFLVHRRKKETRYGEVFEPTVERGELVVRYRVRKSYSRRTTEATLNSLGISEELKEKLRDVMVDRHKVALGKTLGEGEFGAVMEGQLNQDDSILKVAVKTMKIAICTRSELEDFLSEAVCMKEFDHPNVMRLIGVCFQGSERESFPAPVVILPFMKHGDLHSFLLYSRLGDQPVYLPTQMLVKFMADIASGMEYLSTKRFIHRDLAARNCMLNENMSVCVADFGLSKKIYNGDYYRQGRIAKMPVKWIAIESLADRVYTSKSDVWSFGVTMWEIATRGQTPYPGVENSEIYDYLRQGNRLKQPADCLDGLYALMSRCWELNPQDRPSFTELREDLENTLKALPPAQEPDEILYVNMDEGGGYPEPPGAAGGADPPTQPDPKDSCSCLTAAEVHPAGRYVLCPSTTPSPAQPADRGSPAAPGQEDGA
Observed: enzyme activity
Action: inhibitor
Tested at: 0.5 µM
Baseline: control
SMILES | remaining activity
COc1cc2ncnc(Nc3ccc(Oc4ccccc4)cc3)c2cc1OC | 98.2%
CCOC(=O)c1c(C)[nH]c(/C=C2\C(=O)Nc3ccccc32)c1C | 88.9%
OCC(O)CCON=C1C(c2c(O)[nH]c3ccccc23)=Nc2ccccc21 (stereo not drawn) | 42.7%
CO[C@H]1C[C@@H]2CC[C@@H](C)[C@@](O)(O2)C(=O)C(=O)N2CCCC[C@H]2C(=O)O[C@H]([C@H](C)C[C@@H]2CC[C@@H](O)[C@H](OC)C2)CC(=O)[C@H](C)/C=C(\C)[C@@H](O)[C@@H](OC)C(=O)[C@H](C)C[C@H](C)/C=C/C=C/C=C/1C | 99.5%
COc1ccc(OC)c2c(=S)c3ccccc3[nH]c12 | 103%
N#CC(C#N)=C(N)/C(C#N)=C/c1ccc(O)cc1 | 93.7%
O=C(CCCc1ccc(-c2ccccc2F)cc1)Nc1ccc(O)cc1 | 91.4%
CNC(=O)c1cc(Oc2ccc(NC(=O)Nc3ccc(Cl)c(C(F)(F)F)c3)cc2)ccn1 | 105%
Cc1cccc(-c2[nH]c(C(C)(C)C)nc2-c2ccc3c(c2)OCO3)n1 | 101%
Cn1c2ccccc2c2c3c(c4c5ccccc5n(CCC#N)c4c21)CNC3=O | 102%
COc1ccc(CNC(=O)Nc2ncc([N+](=O)[O-])s2)cc1 | 92%
Nc1[nH]nc2nc3ccccc3nc12 | 91.2%
Cn1sc(=O)n(Cc2ccccc2)c1=O | 96.9%

Series 2
SMILES: C=CCc1ccc(O)c(-c2ccc(O)c(CC=C)c2)c1
Target: Anoctamin-1 (ANO1, Homo sapiens, UniProt Q5XXA6, del476-501)
UniProt Q5XXA6, sequence (whole entry, unmodified, looked up): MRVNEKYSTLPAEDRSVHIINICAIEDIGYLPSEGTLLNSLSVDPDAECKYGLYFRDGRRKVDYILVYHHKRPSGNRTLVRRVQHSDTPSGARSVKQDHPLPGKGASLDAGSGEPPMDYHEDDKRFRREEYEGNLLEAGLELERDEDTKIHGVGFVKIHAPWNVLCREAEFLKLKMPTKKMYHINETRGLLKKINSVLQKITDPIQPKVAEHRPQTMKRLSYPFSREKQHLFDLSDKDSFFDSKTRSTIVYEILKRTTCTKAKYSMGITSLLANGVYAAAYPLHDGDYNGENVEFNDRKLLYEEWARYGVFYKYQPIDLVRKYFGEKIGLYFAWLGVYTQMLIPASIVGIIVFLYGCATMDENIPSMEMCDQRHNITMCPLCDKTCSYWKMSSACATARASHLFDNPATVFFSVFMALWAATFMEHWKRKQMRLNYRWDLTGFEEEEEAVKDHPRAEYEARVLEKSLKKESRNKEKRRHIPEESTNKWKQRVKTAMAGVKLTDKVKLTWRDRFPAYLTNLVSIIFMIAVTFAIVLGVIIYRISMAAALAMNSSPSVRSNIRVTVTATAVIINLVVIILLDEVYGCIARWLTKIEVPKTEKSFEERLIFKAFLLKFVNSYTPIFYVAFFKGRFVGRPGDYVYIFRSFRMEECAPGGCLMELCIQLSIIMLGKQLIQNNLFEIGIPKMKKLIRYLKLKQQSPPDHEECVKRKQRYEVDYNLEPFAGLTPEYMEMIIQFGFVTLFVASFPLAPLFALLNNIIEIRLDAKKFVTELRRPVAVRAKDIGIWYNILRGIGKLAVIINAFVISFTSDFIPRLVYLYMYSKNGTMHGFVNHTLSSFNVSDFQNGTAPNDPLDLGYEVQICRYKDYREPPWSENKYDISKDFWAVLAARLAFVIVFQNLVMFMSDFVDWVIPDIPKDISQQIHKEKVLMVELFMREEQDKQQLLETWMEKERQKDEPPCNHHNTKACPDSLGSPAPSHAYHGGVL
Observed: chloride current
Method: whole-cell patch clamp
tested at | notes | together with | normalised current
1 µM | 40 mV, 300 nM free Ca2+ |  | 0.235 and 0.247
10 µM | 20 mV, 300 nM free Ca2+ |  | 0.0212 and 0.0202
1 µM | -20 mV, 300 nM free Ca2+ | honokiol and magnolol 10 µM | -0.0423
30 µM | 20 mV, 300 nM free Ca2+ | honokiol and magnolol 10 µM | 0.0045
100 µM | 40 mV, 300 nM free Ca2+ |  | 0.015 and 0.0157

Series 3
SMILES: COc1cc(/C=C(\C#N)C(=O)c2ccc(O)c(O)c2)cc(I)c1O
Action: inhibitor
Tested at: 5 µM
target | test | system | conditions | how to read | log2 fold change
kinase–CDC37 interaction | kinase–CDC37 binding | human cells | oncogenic ETV6-NTRK3 fusion | baseline: vehicle | 0.137
EGFR (Homo sapiens, UniProt P00533, L858R/T790M) |  | human cells |  | baseline: vehicle | -0.083
RET (Homo sapiens, UniProt P07949) | kinase-CDC37 interaction | human cells |  | baseline: vehicle | 0.084
DCLK2 (Homo sapiens, UniProt Q8N568) |  | human cells |  | baseline: vehicle | 0.155
TGFBR1 (Homo sapiens, UniProt P36897, D400G) | kinase activity |  | cell-based kinome screen | baseline: vehicle | 0.067
BRAF (Homo sapiens, UniProt P15056, G466A) | cell-based kinome profiling | human cells |  | baseline: vehicle control | -0.026
BRAF (Homo sapiens, UniProt P15056, E586K) | cell-based kinome profiling | human cells |  | baseline: vehicle control | -0.177
FLT3 ITD human | kinase-CDC37 interaction | human cells |  | baseline: vehicle | 0.958
GRK2 (Homo sapiens, UniProt P25098) | cell-based kinome screen | human cells |  | baseline: vehicle | 0.049
Ephrin type-B receptor 1, with CDC37 (EPHB1, Homo sapiens, UniProt P54762) | cell-based kinome screen | human cells |  | baseline: vehicle | 0.308

Series 4
Compound: CC1=C(C#N)C(c2ccc3c(c2)c(NC(=O)c2ccccc2C)nn3C)C(C#N)=C(C)N1
Observed: cell-free assay
Method: competition with immobilised ligand
Tested at: 1 µM
target | remaining binding [%]
NLK (Homo sapiens, UniProt Q9UBE8) | 100
ROCK1 (Homo sapiens, UniProt Q13464) | 100
KIT (Homo sapiens, UniProt P10721) | 100
SBK3 (Homo sapiens, UniProt P0C264) | 100
EGFR (Homo sapiens, UniProt P00533, G719S) | 87
MYLK (Homo sapiens, UniProt Q15746) | 100
SRMS (Homo sapiens, UniProt Q9H3Y6) | 57
PLK2 (Homo sapiens, UniProt Q9NYY3) | 74

For quick reference, copied from above (series 2):
tested at | notes | together with | normalised current
1 µM | -20 mV, 300 nM free Ca2+ | honokiol and magnolol 10 µM | -0.0423
30 µM | 20 mV, 300 nM free Ca2+ | honokiol and magnolol 10 µM | 0.0045
